Experimental data collected from several papers.
Protocols differ between the studies behind these lines. ± gives the spread as reported.
U2AF2: U2AF2 148-342 (Homo sapiens, UniProt P26368)
Sequence of UniProt P26368 (whole entry, looked up): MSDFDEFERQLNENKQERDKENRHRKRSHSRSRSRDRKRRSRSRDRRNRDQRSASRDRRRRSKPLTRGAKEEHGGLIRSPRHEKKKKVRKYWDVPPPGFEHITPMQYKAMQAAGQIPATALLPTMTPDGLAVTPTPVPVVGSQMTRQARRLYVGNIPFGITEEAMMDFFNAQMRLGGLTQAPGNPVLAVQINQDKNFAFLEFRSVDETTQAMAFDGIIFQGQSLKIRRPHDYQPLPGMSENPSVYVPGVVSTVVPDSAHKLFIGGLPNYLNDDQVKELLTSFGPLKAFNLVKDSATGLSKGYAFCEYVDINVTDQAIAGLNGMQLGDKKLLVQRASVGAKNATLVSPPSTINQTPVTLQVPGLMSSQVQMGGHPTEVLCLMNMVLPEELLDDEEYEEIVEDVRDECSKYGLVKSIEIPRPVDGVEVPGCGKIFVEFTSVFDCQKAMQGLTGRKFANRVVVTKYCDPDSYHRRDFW
T1: TOA1/TOA2 1-286; 1-122 (Saccharomyces cerevisiae); chain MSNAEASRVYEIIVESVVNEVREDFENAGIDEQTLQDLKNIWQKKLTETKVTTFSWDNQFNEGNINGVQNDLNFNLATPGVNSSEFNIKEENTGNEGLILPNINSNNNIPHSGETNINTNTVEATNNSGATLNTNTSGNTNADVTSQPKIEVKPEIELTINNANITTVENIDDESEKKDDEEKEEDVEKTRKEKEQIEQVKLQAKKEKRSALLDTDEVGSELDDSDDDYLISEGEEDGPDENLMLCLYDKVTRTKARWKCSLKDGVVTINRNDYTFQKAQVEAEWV; chain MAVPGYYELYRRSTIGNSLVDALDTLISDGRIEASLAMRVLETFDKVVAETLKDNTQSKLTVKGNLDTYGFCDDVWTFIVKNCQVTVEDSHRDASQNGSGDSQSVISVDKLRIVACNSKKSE
T2: IKBKG 44-113 C95A/C76S/E110V/R106E/E78R/R75V/L55R/T50E; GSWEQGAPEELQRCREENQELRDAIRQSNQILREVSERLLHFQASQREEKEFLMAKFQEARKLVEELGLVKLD
B1: NHEJ1 1-224 L115A (Homo sapiens, UniProt Q9H9Q4); sequence looked up; chain MEELEQGLLMQPWAWLQLAENSLLAKVFITKQGYALLVSDLQQVWHEQVDTSVVSQRAKELNKRLTAPPAAFLCHLDNLLRPLLKDAAHPSEATFSCDCVADALILRVRSELSGAPFYWNFHCMLASPSLVSQHLIRPLMGMSLALQCQVRELATLLHMKDLEIQDYQESGATLIRDRLKTEPFEENSFLEQFMIEKLPEACSIGDGKPFVMNLQDLYMAVTTQ
B2: ATG9 1-255 (Saccharomyces cerevisiae, UniProt Q12142); sequence looked up; chain MERDEYQLPNSHGKNTFLSRIFGLQSDEVNPSLNSQEMSNFPLPDIERGSSLLHSTNDSREDVDENDLRVPESDQGTSTEEEDEVDEEQVQAYAPQISDGLDGDHQLNSVTSKENVLETEKSNLERLVEGSTDDSVPKVGQLSSEEEEDNEFINNDGFDDDTPLFQKSKIHEFSSKKSNTIEDGKRPLFFRHILQNNRPQRDTQKLFTSSNAIHHDKDKSANNGPRNINGNQKHGTKYFGSATQPRFTGSPLNNT
B3: human lamin A/C; sequence looked up; chain METPSQRRATRSGAQASSTPLSPTRITRLQEKEDLQELNDRLAVYIDRVRSLETENAGLRLRITESEEVVSREVSGIKAAYEAELGDARKTLDSVAKERARLQLELSKVREEFKELKARNTKKEGDLIAAQARLKDLEALLNSKEAALSTALSEKRTLEGELHDLRGQVAKLEAALGEAKKQLQDEMLRRVDAENRLQTMKEELDFQKNIYSEELRETKRRHETRLVEIDNGKQREFESRLADALQELRAQHEDQVEQYKKELEKTYSAKLDNARQSAERNSNLVGAAHEELQQSRIRIDSLSAQLSQLQKQLAAKEAKLRDLEDSLARERDTSRRLLAEKEREMAEMRARMQQQLDEYQELLDIKLALDMEIHAYRKLLEGEEERLRLSPSPTSQRSRGRASSHSSQTQGGGSVTKKRKLESTESRSSFSQHARTSGRVAVEEVDEEGKFVRLRNKSNEDQSMGNWQIKRQNGDDPLLTYRFPPKFTLKAGQVVTIWAAGAGATHSPPTDLVWKAQNTWGCGNSLRTALINSTGEEVAMRKLVRSVTVVEDDEDEDGDDLLHHHHGSHCSSSGDPAEYNLRSRTVLCGTCGQPADKASASGSGAQVGGPISSGSSASSVTVTRSYRSVGGSGGGSFGDNLVTRSYLLGNSSPRTQSPQNC
B4: RPRD1B (Homo sapiens, UniProt Q9NQG5); chain MSSFSESALEKKLSELSNSQQSVQTLSLWLIHHRKHAGPIVSVWHRELRKAKSNRKLTFLYLANDVIQNSKRKGPEFTREFESVLVDAFSHVAREADEGCKKPLERLLNIWQERSVYGGEFIQQLKLSMEDSKSPPPKATEEKKSLKRTFQQIQEEEDDDYPGSYSPQDPSAGPLLTEELIKALQDLENAASGDATVRQKIASLPQEVQDVSLLEKITDKEAAERLSKTVDEACLLLAEYNGRLAAELEDRRQLARMLVEYTQNQKDVLSEKEKKLEEYKQKLARVTQVRKELKSHIQSLPDLSLLPNVTGGLAPLPSAGDLFSTD
B5: GP1BA ligand-binding domain 17-306 (Homo sapiens, UniProt P07359); RED-NHS dye label; sequence looked up; chain HPICEVSKVASHLEVNCDKRNLTALPPDLPKDTTILHLSENLLYTFSLATLMPYTRLTQLNLDRCELTKLQVDGTLPVLGTLDLSHNQLQSLPLLGQTLPALTVLDVSFNRLTSLPLGALRGLGELQELYLKGNELKTLPPGLLTPTPKLEKLSLANNNLTELPAGLLNGLENLDTLLLQENSLYTIPKGFFGSHLLPFAFLHGNPWLCNCEILYFRRWLQDNAENVYVWKQGVDVKAMTSNVASVQCDNSDKFPVYKYPGKGCPTLGDEGDTDLYDYYPEEDTEGDKVR
B6: CDC48A 1-190 (Arabidopsis thaliana, UniProt P54609); chain MSTPAESSDSKSKKDFSTAILERKKSPNRLVVDEAINDDNSVVSLHPATMEKLQLFRGDTILIKGKKRKDTVCIALADETCEEPKIRMNKVVRSNLRVRLGDVISVHQCPDVKYGKRVHILPVDDTVEGVTGNLFDAYLKPYFLEAYRPVRKGDLFLVRGGMRSVEFKVIETDPAEYCVVAPDTEIFCEG
B7: designed binder (Homo sapiens); chain MASAARLTMMWEEVTCPICLDPFVEPVSIECGHSFCQECISQVGKGGGSVCPVCRQRFLLKNLRPNRQLANMVNNLKEISQEAREGTQGERCAVHGERLHLFCEKDGKALCWVCAQSRKHRDHAMVPLEEAAQEYQEKLQVALGELRRKQELAEKLEVEIAIKRADWKKTVETQKSRIHAEFVQQKNFLVEEEQRQLQELEKDEREQLRILGEKEAKLAQQSQALQELISELDRRCHSSALELLQEVIIVLERSESWNLKDLDITSPELRSVCHVPGLKKMLRTCAGGGGSGGGGSGGGGSRLDAPSYIEVRAVRDNWAVITWDYPLAEIDGFELTYGIKDVPGDRTTIKLTEDDYYYYIDYLKPDTEYEVSLISRRGDMSSNPAKITFKTGL
B8: SRS2 1107-1174 (Saccharomyces cerevisiae, UniProt P12954); N-terminal cysteine BODIPY-FL; chain CHNPDDTTVDNRPIISNAKFLADAAMKKTQKFSKKVKNEPASSQMDIFSQLSRAKKKSKLNNGEIIVID
B9: NRP1 (Arabidopsis thaliana); chain MVADKSKKSKIEEKGEEENLEQIDAELVLSIEKLQEIQDDLEKINEKASDEVLEVEQKYNVIRKPVYDKRNEVIQSIPGFWMTAFLSHPALGDLLTEEDQKIFKYLNSLEVEDAKDVKSGYSITFHFTSNPFFEDAKLTKTFTFLEEGTTKITATPIKWKEGKGLPNGVNHDDKKGNKRALPEESFFTWFTDAQHKEDAGDEIHDEVADIIKEDLWSNPLTYFNNDADEEDFDGDDDGDEEGEEDDDDEEEEDGEE
B10: UBQLN2 450-624 (Homo sapiens, UniProt Q9UHD9); sequence looked up; chain RAMQALMQIQQGLQTLATEAPGLIPSFTPGVGVGVLGTAIGPVGPVTPIGPIGPIVPFTPIGPIGPIGPTGPAAPPGSTGSGGPTGPTVSSAAPSETTSPTSESGPNQQFIQQMVQALAGANAPQLPNPEVRFQQQLEQLNAMGFLNREANLQALIATGGDINAAIERLLGSQPS
Sequence of UniProt O95619 (whole entry, looked up): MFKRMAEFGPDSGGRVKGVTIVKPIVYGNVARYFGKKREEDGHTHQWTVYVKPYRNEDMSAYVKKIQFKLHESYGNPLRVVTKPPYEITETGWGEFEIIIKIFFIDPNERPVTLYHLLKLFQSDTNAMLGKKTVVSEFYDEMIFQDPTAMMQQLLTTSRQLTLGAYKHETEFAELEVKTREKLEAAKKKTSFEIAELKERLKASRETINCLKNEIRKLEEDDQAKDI
Sequence of UniProt P02786 (whole entry, looked up): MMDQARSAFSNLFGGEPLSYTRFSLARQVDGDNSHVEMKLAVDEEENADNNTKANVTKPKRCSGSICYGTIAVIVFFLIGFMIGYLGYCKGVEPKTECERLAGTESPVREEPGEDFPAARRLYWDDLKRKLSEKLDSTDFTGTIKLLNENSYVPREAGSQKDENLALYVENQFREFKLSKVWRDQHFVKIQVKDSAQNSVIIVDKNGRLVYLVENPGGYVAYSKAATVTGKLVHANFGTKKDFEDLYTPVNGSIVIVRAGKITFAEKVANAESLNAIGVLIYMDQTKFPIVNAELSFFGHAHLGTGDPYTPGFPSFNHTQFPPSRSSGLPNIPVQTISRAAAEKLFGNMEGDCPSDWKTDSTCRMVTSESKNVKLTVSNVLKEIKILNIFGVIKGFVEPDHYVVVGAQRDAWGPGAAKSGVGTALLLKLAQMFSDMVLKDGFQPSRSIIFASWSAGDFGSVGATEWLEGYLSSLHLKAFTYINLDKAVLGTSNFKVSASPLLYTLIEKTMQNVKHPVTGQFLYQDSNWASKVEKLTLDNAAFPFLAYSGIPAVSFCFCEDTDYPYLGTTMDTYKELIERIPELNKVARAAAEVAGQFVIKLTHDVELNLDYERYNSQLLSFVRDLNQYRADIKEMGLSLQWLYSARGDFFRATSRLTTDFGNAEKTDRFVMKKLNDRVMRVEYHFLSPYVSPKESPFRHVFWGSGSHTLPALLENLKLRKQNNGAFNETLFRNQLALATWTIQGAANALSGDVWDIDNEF
Sequence of UniProt Q5BJF2 (whole entry, looked up): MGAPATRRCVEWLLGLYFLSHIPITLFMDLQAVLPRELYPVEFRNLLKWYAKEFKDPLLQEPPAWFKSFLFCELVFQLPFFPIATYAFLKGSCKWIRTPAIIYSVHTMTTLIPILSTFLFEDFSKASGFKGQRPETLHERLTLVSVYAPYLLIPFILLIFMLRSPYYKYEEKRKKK
Sequence of UniProt Q8IXW5 (whole entry, looked up): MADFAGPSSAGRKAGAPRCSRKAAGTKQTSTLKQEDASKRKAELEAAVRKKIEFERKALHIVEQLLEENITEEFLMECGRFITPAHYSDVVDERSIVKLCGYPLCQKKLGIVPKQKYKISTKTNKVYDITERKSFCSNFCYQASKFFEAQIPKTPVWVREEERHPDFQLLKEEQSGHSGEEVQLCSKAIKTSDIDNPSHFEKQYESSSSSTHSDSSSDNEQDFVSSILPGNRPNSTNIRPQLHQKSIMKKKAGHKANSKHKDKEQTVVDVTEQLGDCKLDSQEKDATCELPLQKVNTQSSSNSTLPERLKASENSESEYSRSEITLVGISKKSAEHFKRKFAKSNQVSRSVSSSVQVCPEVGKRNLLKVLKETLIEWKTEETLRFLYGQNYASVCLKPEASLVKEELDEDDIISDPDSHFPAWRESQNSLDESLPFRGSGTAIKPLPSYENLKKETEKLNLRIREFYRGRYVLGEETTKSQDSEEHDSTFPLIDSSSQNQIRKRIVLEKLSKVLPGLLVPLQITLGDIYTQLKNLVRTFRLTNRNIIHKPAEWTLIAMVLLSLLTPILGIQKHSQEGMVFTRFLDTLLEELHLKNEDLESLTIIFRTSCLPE
Sequence of UniProt Q8NBP7 (whole entry, looked up): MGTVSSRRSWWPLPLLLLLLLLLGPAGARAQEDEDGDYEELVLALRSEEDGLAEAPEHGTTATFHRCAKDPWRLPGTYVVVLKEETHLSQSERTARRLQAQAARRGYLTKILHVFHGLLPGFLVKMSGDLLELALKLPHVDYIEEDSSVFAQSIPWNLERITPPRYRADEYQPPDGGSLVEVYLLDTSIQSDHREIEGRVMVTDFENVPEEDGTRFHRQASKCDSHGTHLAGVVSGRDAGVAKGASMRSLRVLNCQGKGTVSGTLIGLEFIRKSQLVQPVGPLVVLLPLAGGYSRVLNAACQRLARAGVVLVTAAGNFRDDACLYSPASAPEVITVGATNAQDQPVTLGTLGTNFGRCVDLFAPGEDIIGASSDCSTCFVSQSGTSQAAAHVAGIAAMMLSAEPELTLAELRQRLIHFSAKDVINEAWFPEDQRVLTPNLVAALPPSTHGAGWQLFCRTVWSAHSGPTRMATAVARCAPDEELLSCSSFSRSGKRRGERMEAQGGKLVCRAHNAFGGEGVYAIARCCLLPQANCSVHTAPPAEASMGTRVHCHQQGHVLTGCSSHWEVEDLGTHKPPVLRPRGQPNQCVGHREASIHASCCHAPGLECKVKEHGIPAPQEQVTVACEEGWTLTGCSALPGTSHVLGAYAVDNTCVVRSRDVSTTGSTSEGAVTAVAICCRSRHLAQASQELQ
Sequence of UniProt P00742 (whole entry, looked up): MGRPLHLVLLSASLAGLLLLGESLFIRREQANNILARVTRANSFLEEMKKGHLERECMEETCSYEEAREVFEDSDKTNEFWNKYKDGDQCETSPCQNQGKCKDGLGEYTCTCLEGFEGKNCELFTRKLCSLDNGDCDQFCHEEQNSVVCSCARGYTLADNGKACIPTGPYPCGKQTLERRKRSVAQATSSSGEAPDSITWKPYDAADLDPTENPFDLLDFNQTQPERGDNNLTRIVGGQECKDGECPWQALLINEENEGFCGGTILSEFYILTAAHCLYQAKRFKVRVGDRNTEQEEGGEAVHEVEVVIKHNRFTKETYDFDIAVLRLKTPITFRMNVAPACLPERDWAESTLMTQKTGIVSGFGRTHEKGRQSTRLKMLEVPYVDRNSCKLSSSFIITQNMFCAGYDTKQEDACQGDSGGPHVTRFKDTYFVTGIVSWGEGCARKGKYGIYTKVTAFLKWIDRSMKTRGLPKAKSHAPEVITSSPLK
Sequence of UniProt Q13426 (whole entry, looked up): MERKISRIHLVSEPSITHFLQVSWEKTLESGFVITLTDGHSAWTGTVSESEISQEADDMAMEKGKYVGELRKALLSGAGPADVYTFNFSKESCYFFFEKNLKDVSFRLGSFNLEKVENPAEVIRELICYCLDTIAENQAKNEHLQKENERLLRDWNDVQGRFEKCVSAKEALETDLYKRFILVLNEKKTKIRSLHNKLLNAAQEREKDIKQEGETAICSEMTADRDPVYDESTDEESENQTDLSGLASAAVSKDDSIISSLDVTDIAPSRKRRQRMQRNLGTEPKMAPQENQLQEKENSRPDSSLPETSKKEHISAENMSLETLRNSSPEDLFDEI
Sequence of UniProt P13393 (whole entry, looked up): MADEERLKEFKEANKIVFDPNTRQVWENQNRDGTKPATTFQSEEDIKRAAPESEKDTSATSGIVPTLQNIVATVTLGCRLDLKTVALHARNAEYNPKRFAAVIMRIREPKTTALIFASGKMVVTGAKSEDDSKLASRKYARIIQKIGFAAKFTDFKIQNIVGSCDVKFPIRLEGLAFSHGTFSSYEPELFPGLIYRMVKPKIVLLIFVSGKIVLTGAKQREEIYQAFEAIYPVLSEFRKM
Sequence of UniProt Q9UDY8 (whole entry, looked up): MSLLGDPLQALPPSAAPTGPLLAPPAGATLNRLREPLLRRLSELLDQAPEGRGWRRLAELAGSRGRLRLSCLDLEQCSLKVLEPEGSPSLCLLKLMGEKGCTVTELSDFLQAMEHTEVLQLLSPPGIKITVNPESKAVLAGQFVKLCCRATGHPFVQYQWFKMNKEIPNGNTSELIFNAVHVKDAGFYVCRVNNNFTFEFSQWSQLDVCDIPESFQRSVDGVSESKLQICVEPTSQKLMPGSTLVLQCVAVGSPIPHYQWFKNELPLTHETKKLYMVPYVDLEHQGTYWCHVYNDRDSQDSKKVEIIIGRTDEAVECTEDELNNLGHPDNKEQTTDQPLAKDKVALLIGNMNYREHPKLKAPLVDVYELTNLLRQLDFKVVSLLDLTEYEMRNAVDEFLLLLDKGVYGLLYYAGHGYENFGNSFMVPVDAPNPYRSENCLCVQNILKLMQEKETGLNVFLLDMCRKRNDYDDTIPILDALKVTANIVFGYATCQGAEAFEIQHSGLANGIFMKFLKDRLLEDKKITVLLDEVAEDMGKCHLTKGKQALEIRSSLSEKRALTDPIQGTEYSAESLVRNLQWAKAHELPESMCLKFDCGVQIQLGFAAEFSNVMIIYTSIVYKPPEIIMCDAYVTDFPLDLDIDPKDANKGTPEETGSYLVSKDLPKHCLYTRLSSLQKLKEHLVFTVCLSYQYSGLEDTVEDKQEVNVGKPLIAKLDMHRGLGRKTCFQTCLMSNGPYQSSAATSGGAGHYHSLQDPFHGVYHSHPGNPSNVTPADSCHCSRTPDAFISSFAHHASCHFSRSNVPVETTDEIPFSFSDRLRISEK

Molecule	tested on	test	system	conditions	how to read	endpoint	value
B1 (NHEJ1 1-224 L115A)	XRCC4 (Homo sapiens, UniProt Q13426)	BLI	–	–	–	Kd	0.16 µM
FN1 (Homo sapiens, UniProt P02751)	FIBH fragment, N-terminal Alexa Fluor 488 (Bombyx mori)	FCS	–	–	–	Kd	0.00818 ± 0.00012 µM
Histone H4 fragment (Homo sapiens)	KMT2D PHD triple cassette (Homo sapiens)	fluorescence titration	–	together with: tryptophan fluorescence	–	Kd	9 µM
Homer EVH1 domain (Capsaspora owczarzaki)	DBN1 peptide (Homo sapiens)	BLI	–	–	–	Kd	> 150 µM
histone H4 peptide fragment, K5ac	YEATS4 19-159 (Homo sapiens, UniProt O95619)	ITC	–	together with: histone H3 peptide	–	Kd	> 1000 µM
Cacng2 fragment (Mus musculus) (sequence not shown)	DLG4 PDZ1, pS73 (Homo sapiens)	ITC	–	–	–	Kd	40 µM
ISTEEVQFLIPPESQAEKPEAGDKPAAAEQ (CCDC32 150-179 (Mus musculus, UniProt Q8BS39))	AP-2 core (Mus musculus)	FP	–	–	–	Kd	0.61 µM
GGTGAGGGTACTTATGCGGTTGTTTACTTGGGTTGTCAAGTCAATCGGTCC (dsDNA; 5'-amino-C6 primer)	T1, TOA1/TOA2 1-286; 1-122 (Saccharomyces cerevisiae)	array	double-stranded DNA, one strand shown	TFIIA alone	–	Kd	0.14 ± 0.0625 µM
B2 (ATG9 1-255)	ATG23 Y16E (UniProt Q06671)	BLI	–	–	–	Kd	3.2 µM
F10 factor Xa (Homo sapiens, UniProt P00742)	factor Va R306Q/R506Q (Homo sapiens, UniProt P12259)	thrombin generation, prothrombinase activity titration	–	–	–	Kd	0.0003 ± 3e-05 µM
PARRSEELVAEAHNLCTLLENAIQDTVREQDQSFTALDWSWLQTE (IKBKB 701-745 K703R/K704R (UniProt O14920); N-terminal FITC; sequence looked up)	T2, IKBKG 44-113 C95A/C76S/E110V/R106E/E78R/R75V/L55R/T50E	fluorescence polarisation	peptide	–	–	Kd	0.272 µM
B3 (human lamin A/C)	PP6C (human)	co-immunoprecipitation, IP-MS	CYB5R4 knockout cells	concentration not given	reference: CYB5R4 knockout over parental	log2 fold change	0.52
UUAAUUCAU (ssRNA)	U2AF2	sequencing of bound RNA	RNA	motif only	–	Kd	7.26 µM
HTN1 fragment alanine substitutions at 12-14	TMEM97 (Homo sapiens, UniProt Q5BJF2)	SPR	–	–	–	Kd	10.1 µM
B4 (RPRD1B)	RPAP2 (Homo sapiens, UniProt Q8IXW5)	ITC	–	25 °C	–	Kd	478 µM
KLLMIIHDRREFAKFEKEKMNAKWDTQENPIYKSPINNFKNPNYGRKAGL (ITGB1 752-801 (Homo sapiens, UniProt P05556-5); sequence looked up)	Tln2 312-408 S392A (Mus musculus, UniProt Q71LX4)	NMR titration	–	–	–	Kd	54 µM
B5	VWF fragment (Homo sapiens)	MST	–	–	–	Kd	0.0168 µM
TCTTTTCTTGCTTAAATCTATAACTACAAAAAACATCAAGTCAATCGGTCC (dsDNA; 5'-amino-C6 primer)	SPT15 full length assumed (Saccharomyces cerevisiae, UniProt P13393)	array	double-stranded DNA, one strand shown	TBP alone	–	Kd	0.0326 ± 0.00219 µM
PCSK9 (Homo sapiens, UniProt Q8NBP7)	alirocumab IgG, PBS-stressed 28 d, Asn deamidation, heavy chain CDR1 Asn30 and Fc	SPR	–	–	–	Kd	0.00065 µM
human endoplasmin	CYB5R4 knockout human cells	PP4 interaction, 3xFLAG-PP4C IP-MS	–	concentration not given	reference: CYB5R4 KO over parental	log2 fold change	0.17
B6 (CDC48A 1-190)	PUX9 (Arabidopsis thaliana, UniProt Q4V3D3)	BLI	–	25 °C	–	Kd	0.0058 ± 0.0001 µM
CCCGCUUUG (ssRNA)	U2AF2	sequencing of bound RNA	RNA	motif only	–	Kd	2.33 µM
ARTKQTARKS (histone H3 1-10; K4me3)	ING1 163-234 M191A (Arabidopsis thaliana, UniProt Q9LIQ6)	ITC	peptide	–	–	Kd	29.7 ± 0.8 µM
B7 (designed binder)	MALT1 (Homo sapiens, UniProt Q9UDY8)	BLI	designed binder	–	–	Kd	> 3.4 µM
B8 (SRS2 1107-1174)	POL30 1-258 K164R (Saccharomyces cerevisiae, UniProt P15873)	fluorescence polarisation	–	apparent	–	Kd	0.138 µM
AP2A2/AP2B1/AP2M1/AP2S1 AP-2 core (Mus musculus)	CCDC32 150-179, HaloTag, Atto488 label (Mus musculus, UniProt Q8BS39)	FP	–	–	–	Kd	0.61 µM
IGHA1 hinge (Homo sapiens)	TFRC 101-760 (Homo sapiens, UniProt P02786)	SPR	–	–	–	Kd	51.6 µM
B9 (NRP1)	H2A/H2B dimer (Gallus gallus)	SPR	–	–	–	Kd	0.51 µM
B10 (UBQLN2 450-624)	ubiquitin M1-linked tetramer (UniProt P0CG48)	NMR titration	–	–	–	Kd	12.8 µM
